Measurements collected from several papers.
Numbered parts are unrelated; each lists some results of a single study.

Sample 1 — technique: protein binding microarray; molecule type: double-stranded DNA, one strand shown; medium: in vitro; tested at: not given; baseline: not given; reading: higher = stronger binding
Target: Histone acetyltransferase KAT6A, winged helix 1, GST fusion (KAT6A, Homo sapiens, UniProt Q92794, residues 1-85)
Setting: 8-mer, flanks averaged, mean of 2 arrays, mostly near background
Target sequence (chain): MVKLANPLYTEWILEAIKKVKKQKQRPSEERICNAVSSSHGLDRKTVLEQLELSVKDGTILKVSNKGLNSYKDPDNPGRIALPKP
Oligonucleotide	E-score
GGAAGCTA	-0.109
GCCCTTCA	-0.11
CCTGCTGA	-0.188
AGGAGATC	-0.156

Sample 2 — technique: universal PBM; molecule type: double-stranded DNA, one strand shown; medium: in vitro; tested at: not given; reading: higher = stronger binding
Target: Sal-like protein 4, full length isoform B (SALL4, Homo sapiens, UniProt Q9UJQ4-2, residues 1-616)
Setting: 8-mer, flanks averaged, mean of replicates
Residues (chain): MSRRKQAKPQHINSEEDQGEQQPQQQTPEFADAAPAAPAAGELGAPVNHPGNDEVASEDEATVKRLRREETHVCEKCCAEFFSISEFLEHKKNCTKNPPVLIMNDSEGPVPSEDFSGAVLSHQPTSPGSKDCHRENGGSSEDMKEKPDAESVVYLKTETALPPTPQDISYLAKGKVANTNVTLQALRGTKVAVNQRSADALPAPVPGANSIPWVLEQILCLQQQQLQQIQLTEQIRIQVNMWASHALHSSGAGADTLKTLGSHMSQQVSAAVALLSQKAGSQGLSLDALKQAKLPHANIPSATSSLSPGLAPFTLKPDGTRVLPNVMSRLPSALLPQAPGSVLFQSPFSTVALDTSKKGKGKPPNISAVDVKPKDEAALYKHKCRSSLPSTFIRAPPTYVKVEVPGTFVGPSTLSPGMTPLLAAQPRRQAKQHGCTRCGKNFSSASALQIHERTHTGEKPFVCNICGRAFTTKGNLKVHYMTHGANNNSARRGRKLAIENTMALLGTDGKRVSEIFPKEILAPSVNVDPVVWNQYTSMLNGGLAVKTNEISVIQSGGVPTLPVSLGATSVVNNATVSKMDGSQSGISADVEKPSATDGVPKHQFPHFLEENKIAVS
Oligonucleotide	E-score
ACAGTCAC	-0.0796
AGCGATAC	0.0414
CCCCAATA	0.174

Mixed results
CBF1 full length, N-terminal tag: Centromere-binding protein 1, full length, N-terminal tag (CBF1, Saccharomyces cerevisiae, UniProt P17106, residues 1-351)
UniProt P17106, sequence (whole entry, looked up): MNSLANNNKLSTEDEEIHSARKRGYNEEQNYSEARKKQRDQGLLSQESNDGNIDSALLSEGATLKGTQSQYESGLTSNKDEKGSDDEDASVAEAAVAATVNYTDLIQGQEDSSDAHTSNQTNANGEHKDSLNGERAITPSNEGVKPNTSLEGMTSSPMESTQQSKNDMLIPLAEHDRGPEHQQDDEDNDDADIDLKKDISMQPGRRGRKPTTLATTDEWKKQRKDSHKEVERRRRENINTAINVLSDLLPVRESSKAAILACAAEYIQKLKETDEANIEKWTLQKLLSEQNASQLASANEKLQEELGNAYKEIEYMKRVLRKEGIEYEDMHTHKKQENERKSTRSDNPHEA
Molecule	target	test	system	setting	how to read	measurement	value
CTATTTGGCGAGTGACATGTGAAAACTTTGCCTTTCGTCTTGATTCGCTTGACGCTGCTG	CBF1 full length, N-terminal tag	protein-binding microarray	double-stranded DNA, one strand shown, in vitro	0.8 µM, whole 60-bp probe, no competitor	higher = stronger binding	fluorescence intensity	699 a.u.
PhoQ, residues 284 288 289 292 302 303 SLKLQV	PhoP, residues 12 14 15 18 19 LHSVQ (Escherichia coli, UniProt P23836)	Sort-seq, refers to: YFP reporter	E. coli	PhoQ-PhoP variant library, together with: 10 µM Mg2+	baseline: high Mg2+ state, higher = stronger signaling	fold induction	14.2
CTAACGAGCCTTCATCACGTGCATTAAAGAAATTTCGTCTTGATTCGCTTGACGCTGCTG	CBF1 full length, N-terminal tag	protein-binding microarray	double-stranded DNA, one strand shown, in vitro	0.8 µM, whole 60-bp probe, no competitor	higher = stronger binding	fluorescence intensity	10400 a.u.

Some of these lines once more (sample 1):
Oligonucleotide	E-score
CCTGCTGA	-0.188
GCCCTTCA	-0.11
